Published values collected from several papers.
Every numbered part comes from another study and shows a few of its results, in no order.

Series 1 — technique: competition protein-binding microarray; form: double-stranded DNA, one strand shown; sample: in vitro; concentration: 2 µM; added: Pho4 competitor, 0.05 µM; reading: higher = stronger binding; all sequences stand within: … GTCTTGATTCGCTTGACGCTGCTG
Target: Centromere-binding protein 1, full length, His-tagged (CBF1, Saccharomyces cerevisiae, UniProt P17106, residues 1-351)
Sequence of UniProt P17106 (whole entry, looked up): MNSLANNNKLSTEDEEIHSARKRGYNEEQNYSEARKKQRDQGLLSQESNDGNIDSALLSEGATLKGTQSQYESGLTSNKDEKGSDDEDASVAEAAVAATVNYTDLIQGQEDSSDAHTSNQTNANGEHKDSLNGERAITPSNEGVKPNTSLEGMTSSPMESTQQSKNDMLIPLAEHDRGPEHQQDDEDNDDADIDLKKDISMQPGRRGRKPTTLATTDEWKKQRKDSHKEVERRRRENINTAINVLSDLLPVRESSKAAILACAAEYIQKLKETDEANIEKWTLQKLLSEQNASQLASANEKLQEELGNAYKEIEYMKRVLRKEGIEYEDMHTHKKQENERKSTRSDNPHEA
Setting: whole 60-bp probe, lowest competitor level
| Strand | fluorescence intensity |
| --- | --- |
| TTGTTGAATTTGGGACCCTTGTTGATACCTCTGGAT | 60.2 a.u. |
| TGCGCAACAACTTTTCACGTGACGTTATGTCTAGAA | 4700 a.u. |
| GGTAAGAAAAACCGACGCGTGGCCGACATCGAGTAG | 78.4 a.u. |
| ATTTCTTCTGTTTCACACGTTGTGCTTGCCAGGAAT | 107 a.u. |
| GAAGTAACTTGATACGTCGTGGGTAAATGGGTCTGT | 82.9 a.u. |
| GTCTTGTCTCATTTCCACGTGTTTTTCCCCACTTCA | 634 a.u. |
| AAATTACTAAGTTGTATGGTGGGTGACGCCGTATGA | 63.7 a.u. |
| CATTGGCCAGGGACGCATGTGCAGAGGCGGCAGAGT | 79.5 a.u. |
| TGCGCAACAACTTGGCTTGTGGGTGTATGTCTAGAA | 57.8 a.u. |
| AAAGCGGTAATTTGAGGTGTGGGTGCAGATATCTAT | 70.5 a.u. |
| AGGAGAAAATCCGGCCACGATTTAACGGTTGTTGCT | 68.7 a.u. |
| CTTCTGTAAATTTGAACAGTGGGTGGACGCGCCCCG | 67.3 a.u. |
| CTAACGAAGGTTTGCCTGGTGGGTGACAAGCCAAGT | 65.5 a.u. |
| GGCCGGGGCATGTTTCACGGGAAGTTCTGTGGCAGG | 68.1 a.u. |
| AAATGGGCAGAATGCCACATGTTAGCAATGCAACGA | 108 a.u. |
| CTTCTGTAAATTTGAGGCGTGGGTGGACGCGCCCCG | 75 a.u. |
| CAGAACCTGCTAAAGCACGTGATGGGAGAAAATCAA | 6390 a.u. |
| AAATTACTAAGTTGTATCGTGGGTGACGCCGTATGA | 102 a.u. |
| CGTCCTAGTGATTGCTAAGTGGGTGCCATGAGGAAG | 92.2 a.u. |
| CTTGCAAAAAGAAAAGGCGTGGCCGTAGTCTTCGCT | 72.6 a.u. |
| AAAGCGGTAATTTGTCACAGCACTTCACATATCTAT | 87.3 a.u. |
| TCGGTCCCCTCATAAAATTATATATAAATGGGTTAG | 78 a.u. |
| AATCGCTATCACTTACATGTGATATCATTTCTGTAC | 653 a.u. |

Series 2 — technique: protein binding microarray; form: double-stranded DNA, one strand shown; sample: in vitro; concentration: not given; relative to: not given; reading: higher = stronger binding
Target: Histone acetyltransferase KAT6A, winged helix 1, GST fusion (KAT6A, Homo sapiens, UniProt Q92794, residues 1-85)
Setting: 8-mer, flanks averaged, mean of 2 arrays, mostly near background
Residues (chain): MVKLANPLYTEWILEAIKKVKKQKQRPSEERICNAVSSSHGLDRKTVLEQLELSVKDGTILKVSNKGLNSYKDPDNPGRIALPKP
| Strand | E-score |
| --- | --- |
| AAGGCTCG | -0.0931 |
| AATAGGAT | 0.0226 |
| CATGGTGG | -0.0928 |
| AGCCGTTC | 0.285 |
| AATTAAAT | -0.117 |
| CCAGTCGC | 0.0817 |
| GACCGCTA | 0.248 |
| CTTCACCA | -0.0677 |
| CCAAGTGA | -0.165 |
| GCAGAGCC | 0.0339 |
| GGTCACGA | -0.134 |
| ACCGATAT | 0.0241 |
| AGTCATAA | -0.195 |
| GCTCGGAC | 0.188 |
| GATGAGCA | -0.301 |
| CATATTGA | -0.257 |
| AAACAAGC | -0.129 |
| ACATACCA | -0.105 |
| AAGCTCGA | -0.16 |
| ACCAGGGC | 0.0307 |
| ACAGGGAC | 0.0577 |
| ACACTTGC | -0.00196 |
| ACGAATTA | -0.165 |

Series 3 — technique: RNA Bind-n-Seq; form: RNA; sample: in vitro; concentration: 100 nM; setting: RNA with constant flanks, ends assumed; relative to: input RNA pool; reading: higher = stronger binding
Target: RING finger protein unkempt homolog, zinc fingers 1-6, SBP tag (UNK, Homo sapiens, UniProt Q9C0B0, residues 30-357)
Sequence of UniProt Q9C0B0 (30-357, looked up): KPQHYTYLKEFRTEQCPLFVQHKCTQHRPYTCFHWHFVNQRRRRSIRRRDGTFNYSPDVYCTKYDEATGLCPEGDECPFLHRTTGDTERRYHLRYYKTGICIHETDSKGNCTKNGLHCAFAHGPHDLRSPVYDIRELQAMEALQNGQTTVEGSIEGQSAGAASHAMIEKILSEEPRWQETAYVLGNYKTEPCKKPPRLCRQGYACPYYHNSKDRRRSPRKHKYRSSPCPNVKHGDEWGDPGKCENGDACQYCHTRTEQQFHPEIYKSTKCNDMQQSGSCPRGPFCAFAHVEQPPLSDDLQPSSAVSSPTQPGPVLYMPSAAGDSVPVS
| Strand | bound/input enrichment |
| --- | --- |
| GGGAGUUCUACAGUCCGACGAUCUGGGUUACUCCUAUUAUUAUCAAGCCGCUGGAAUUGUGAAGGUCGGAGCCGUCCGAUCUUCCGCUUUUAUUCCUUAUUUUUUUGUAUUACUCUCCAUGUGUAUAAAUUAUUGAUCAUGUUCAACAGAGGAUUGAGCAUCA | 1.2 ratio |
| GGGAGUUCUACAGUCCGACGAUCUAAAGGUUUUUUUUUUUUAAUUUAAUUUUUCCUUUUGGGGGUAAAGUUUGCUCUACCAAACCGUGAUUGUAACAAAUUGAUCUGUUUUGGAUGUUGCUACCGUGACAUGCAGUUAUAUAUCAACAGAGGAUUGAGCAUCA | 0.452 ratio |
| GGGAGUUCUACAGUCCGACGAUCCAGCUGAUUCACUCAUUGGGAGAGCUGCACAUACCGCUGUUCUUGAUUCGGAAAUAUUUUCCGAGAAAUUCUUUCUGGUUGCUGCCCUCAAAUAUUUCCAACCGUAUAAAAGCAUUGUUACAACAGAGGAUUGAGCAUCA | 0.643 ratio |

Series 4 — technique: RNA Bind-n-Seq; form: RNA; sample: in vitro; concentration: 365 nM; relative to: no-protein control; reading: higher = stronger binding
Target: RNA binding protein fox-1 homolog 2, RRM domain, GST-SBP tag (RBFOX2, Homo sapiens, UniProt O43251-10, residues 100-194)
Setting: natural RNA segment, single round, ends assumed
All sequences stand within: GGGAGUUCUACAGUCCGACGAUC … UGGAAUUCUCGGGUGCCAA
Residues (chain): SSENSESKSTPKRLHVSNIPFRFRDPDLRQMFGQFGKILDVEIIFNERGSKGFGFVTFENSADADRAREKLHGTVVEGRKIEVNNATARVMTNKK
| Strand | RBNS enrichment (R) |
| --- | --- |
| UAUCGAUAGCUCCUCCCCCGGGAGACAGAGAGUCGCUCUGGUGGAUCAGUGUACAGAUUGUAUAUAGCGUCAUUUUUACGGAAACCCUUUUGGCGUGCAUAAGGAUCACU | 0.393 |
| UCAUUCCUAAGUUCCUUUUUCGUUAAUGUAGCUUUCAUUUCUGUUAUUGCUGUUUGAAUAAUAUGAUUAAAUAGAAGGUUUGUGCCAGUAGACAUUAUGUUACUAAAUCA | 1.11 |
| CUACUCCCUGGACGUGUGGAGCUAGGGCCUGCCUGCCCCACCCACCCCACAGACUCCGGCCUGUAAUCAGCUCUCCUGGCUCCCUCCCGUAGUCUCCUGGGUGUGUUUGG | 0.865 |
| AAAGUAGGACAUGUGCAGUCCCACCUGCAUCCAGUGUGGCUCUCUCCAUGGAGACUUGCUCUUCUUCUGCCCUGGACAUGUGGGGAGCUCCCGCUUCCACCCCCACUGUC | 0.413 |
| AUUUAAGCUCCCCAGGAAAUCCCAUGACAAACUGGCCUCUGGCUGGCGCGCUGAUUAGACUUCAGUUCCUGAAAAGGACCAGUGGAGGGAAGAGCUAUACUUCUGGAGAA | 0.257 |
| GCUGUUAGAGAGUGCCAUGAGUGGAAAAUACCUGCACGAUGACUUCGCCCUGCCCUGCCCACCGGGGCUGAAAAUUCCUGAGGAAGAUGGUUACACCAUCACCCCCAACA | 1.95 |
| CAGACUCAGUUUUUCUUAUGUUAUACAAAAUAUUAGCCAUGCAUUUAUUAUGUAAAGGACUACCCAUGAUAACAUGCCAUAUUAUGUGUUUAUAUUCUAAUGUAACCAUA | 0.396 |
| AAGAGUUUACCUCUUCUAGACAUUUAUGCCCAAUGGUGUCACACAUGAUCAUUUGCUCCUGCUCUAAUUUUAAUGUGCAUACAAAAAAUAUACCAAAAAUGUUAUUGUAA | 0.597 |
| CUAACAUGCCCUCUCUGGAAAGCAUAUGUAUAUAACAUGUGUCAUGUCCUUUGGAAACCUGGUCACCUGGUGAAAACCCUUGGGAUUCUUCCCUGGGCAUGACUGAUGAC | 0.196 |
| UAAGGAAAAUAAUAUUAUUUAAACUCGCUCCUAGUGUUUCUUUGUGGUCUGUGUCACCGUAUCUCAGGAAGUCCAGCCACUUGACUGGCACACACCCCUCCGGACAUCCA | 0.535 |
| UUUUCCAAAAUGAAUUGGGAAAAAAAAAUCGUAUAGCAGUCUUAAAGCUUAGUAAUGGAACUUGGCUGUGGCCCAGAGCUUUCUCCUUAUAGAGAAUUUGAUCUGCUCCG | 0.398 |
| GCCUGGGAUUAUUUUUUUAAUUUUAAGUUUGCAUGAGAUAGCCUAAUAAAUGGAGGUGGGGCCAGGCAUGGUGGCUCACACGUGUAAUCCCAACACUUUGGGAGGCUGAG | 31.2 |

Series 5 — target: UBE2E2 UBC core domain (UniProt Q96LR5); technique: yeast two-hybrid; sample: yeast; setting: mostly zero background; relative to: not given; reading: higher = stronger interaction
Sequence of UniProt Q96LR5 (whole entry, looked up): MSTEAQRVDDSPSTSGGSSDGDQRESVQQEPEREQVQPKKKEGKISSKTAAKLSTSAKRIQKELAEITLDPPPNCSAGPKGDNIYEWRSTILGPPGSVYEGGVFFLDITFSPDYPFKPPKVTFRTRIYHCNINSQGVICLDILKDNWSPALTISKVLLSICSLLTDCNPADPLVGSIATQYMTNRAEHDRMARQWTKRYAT
B1: TRIM8 RING domain (UniProt Q9BZR9); chain WKNCFEEELICPICLHVFVEPVQLPCKHNFCRGCIGEAWAKDSGLVRCPECNQAYNQKPGLE
B2: ZNF598 RING domain (UniProt Q86UK7); chain AAAPERGGGSCVLCCGDLEATALGRCDHPVCYRCSTKMRVLCEQRYCAVCREELRQVVFGK
B3: ARK2C RING domain (UniProt Q6ZSG1); chain EGEESDTDEKCTICLSMLEDGEDVRRLPCMHLFHQLCVDQWLAMSKKCPICRVDIETQLGAD
B4: TRIM63 RING domain (UniProt Q969Q1); chain PMENLEKQLICPICLEMFTKPVVILPCQHNLCRKCANDIFQAANPYWTSRGSSVSMSGGRFRCPTCRHEVIMDRHGV
B5: IRF2BPL RING domain (UniProt Q9H1B7); chain SPMANSGPLCCTICHERLEDTHFVQCPSVPSHKFCFPCSRESIKAQGATGEVYCPSGEKCPLVGSNVP
B6: RNF170 RING domain (UniProt Q96K19); chain TRQQFYTDMYCPICLHQASFPVETNCGHLFCGACIIAYWRYGSWLGAISCPICRQTVTLLLTVF
B7: RC3H2 RING domain (UniProt Q9HBD1); chain QAAQWTEFLSCPICYNEFDENVHKPISLGCSHTVCKTCLNKLHRKACPFDQTAINTDIDVL
B8: TRIM72 RING domain (UniProt Q6ZMU5); chain APGLLHQELSCPLCLQLFDAPVTAECGHSFCRACLGRVAGEPAADGTVLCPCCQAPTRPQALST
B9: CUL9 RING domain (UniProt Q8IWT3); chain AQAVPVRPDHCPVCVSPLGCDDDLPSLCCMHYCCKSCWNEYLTTRIEQNLVLNCTCPIADCPAQPTGAFIR
| Molecule | lacZ reporter activity |
| --- | --- |
| QLRRLQEERTCKVCMDKEVSIVFIPCGHLVVCKDCAPSLRKCPICRSTIKGTVRTF (BIRC3 RING domain (UniProt Q13489)) | 0 |
| B1 (TRIM8 RING domain) | 0 |
| VTLSLTLPITCHICLGKVRQPVICINNHVFCSICIDLWLKNNSQCPACRVPITPENPCK (OBI1 RING domain (UniProt Q5W0B1)) | 0 |
| EDEVSDNSAECVVCLSDVRDTLILPCRHLCLCNTCADTLRYQANNCPICRLPFRALLQIR (RNF157 RING domain (UniProt Q96PX1)) | 0 |
| FPEHFVKSISCQICEHILADPVETNCKHVFCRVCILRCLKVMGSYCPSCRYPCFPTDLES (RAG1 RING domain (UniProt P15918)) | 0 |
| B2 (ZNF598 RING domain) | 0 |
| B3 (ARK2C RING domain) | 0 |
| KTLSRFGIQPCSICLGDAKDPVCLPCDHVHCLRCLRAWFASEQMICPYCLTALPDEFSPA (RNF213 RING domain (UniProt Q63HN8)) | 0 |
| B4 (TRIM63 RING domain) | 0 |
| B5 (IRF2BPL RING domain) | 0 |
| B6 (RNF170 RING domain) | 0 |
| B7 (RC3H2 RING domain) | 0 |
| B8 (TRIM72 RING domain) | 0 |
| B9 (CUL9 RING domain) | 0 |
| QLRRLQEERTCKVCMDKEVSVVFIPCGHLVVCQECAPSLRKCPICRGIIKGTVRTF (BIRC2 RING domain (UniProt Q13490)) | 0 |
| DDENSDNSNECVVCLSDLRDTLILPCRHLCLCTSCADTLRYQANNCPICRLPFRALLQIR (MGRN1 RING domain (UniProt O60291)) | 0 |

A few entries again (series 2):
| Strand | E-score |
| --- | --- |
| AAACAAGC | -0.129 |
| CATATTGA | -0.257 |
| AAGCTCGA | -0.16 |
| ACGAATTA | -0.165 |
| AATAGGAT | 0.0226 |
| GCTCGGAC | 0.188 |
| GATGAGCA | -0.301 |
| GGTCACGA | -0.134 |
| ACCGATAT | 0.0241 |
| CATGGTGG | -0.0928 |
| GACCGCTA | 0.248 |
| AGTCATAA | -0.195 |
